Published values pooled from the literature.
Every numbered part comes from another study and shows a few of its results, in no order. Substitutions count along the parent as printed.

Series 1 — target: CCNB3, cyclin fold, Cln2 fusion (human); technique: yeast growth competition, sequencing; sample: yeast; notes: strong parent motif; baseline: not given; reading: higher = stronger binding
Parent: SCAPER docking peptide (human); SNARRSLNFGGST; partner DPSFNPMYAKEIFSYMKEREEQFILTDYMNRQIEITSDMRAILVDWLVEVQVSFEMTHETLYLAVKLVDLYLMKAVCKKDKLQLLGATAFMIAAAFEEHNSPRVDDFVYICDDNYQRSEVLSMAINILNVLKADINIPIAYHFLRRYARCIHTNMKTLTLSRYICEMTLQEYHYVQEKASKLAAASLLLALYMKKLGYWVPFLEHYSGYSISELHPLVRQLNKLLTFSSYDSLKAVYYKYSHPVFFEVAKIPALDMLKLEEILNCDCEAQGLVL
Under “normalised enrichment score”, `S12L` is recorded as 1.88.
Under “normalised enrichment score”, `R5K F9L` is recorded as 0.293.
Under “normalised enrichment score”, `R5H` is recorded as 0.296.
`R4K` — result for “normalised enrichment score”: 0.457.
Under “normalised enrichment score”, `N2I` is recorded as 1.39.
For `N8S`, “normalised enrichment score” read 1.44.
`R4F` — result for “normalised enrichment score”: 0.0255.
Under “normalised enrichment score”, `S12D` is recorded as 1.31.
`G10I` — result for “normalised enrichment score”: 0.751.
`A3H` — result for “normalised enrichment score”: 0.241.
Under “normalised enrichment score”, `N2R` is recorded as 1.32.
`G11M`: “normalised enrichment score” 1.3.
`S1I`: “normalised enrichment score” 1.66.
`G10F` — result for “normalised enrichment score”: 0.558.

Series 2 — target: FOSL2, bZIP domain (human); technique: DHFR protein complementation; sample: yeast; baseline: wild-type JUN-FOS pair; reading: higher = stronger binding
Notes: single substitutions, most at no-binding floor
Parent: JUN, bZIP domain (human); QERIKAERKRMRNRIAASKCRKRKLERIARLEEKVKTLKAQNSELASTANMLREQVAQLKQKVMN; partner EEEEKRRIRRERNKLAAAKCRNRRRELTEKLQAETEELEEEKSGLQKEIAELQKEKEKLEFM
`L38A` gave a binding fitness of -0.394 natural log.
For `E32S`, the binding fitness was 0.0116 natural log.
The binding fitness of `V56R` is reported as -1.29 natural log.
`S43H` gave a binding fitness of 0.128 natural log.
`Q55W` gave a binding fitness of -0.482 natural log.
With `T37Y` the binding fitness was 0.034 natural log.
With `S43Q` the binding fitness was 0.135 natural log.
For `R53W`, the binding fitness was -0.81 natural log.
For `M51V`, the binding fitness was 0.0244 natural log.
For `L52A`, the binding fitness was -1.37 natural log.
The binding fitness of `A29Y` is reported as -0.087 natural log.
With `A40K` the binding fitness was 0.14 natural log.
`L38S` gave a binding fitness of -0.808 natural log.
With `N42M` the binding fitness was -0.154 natural log.
`L45G` has a binding fitness of -1.38 natural log.
`L38E` gave a binding fitness of -1.35 natural log.
For `A57G`, the binding fitness was 0.0111 natural log.
With `A49E` the binding fitness was -0.531 natural log.

Series 3 — technique: RNA Bind-n-Seq; molecule type: RNA; sample: in vitro; concentration: 365 nM; baseline: no-protein control; reading: higher = stronger binding
Target: RNA binding protein fox-1 homolog 2, RRM domain, GST-SBP tag (RBFOX2, Homo sapiens, UniProt O43251-10, residues 100-194)
Notes: natural RNA segment, single round, ends assumed
All sequences stand within: GGGAGUUCUACAGUCCGACGAUC … UGGAAUUCUCGGGUGCCAA
Residues (chain): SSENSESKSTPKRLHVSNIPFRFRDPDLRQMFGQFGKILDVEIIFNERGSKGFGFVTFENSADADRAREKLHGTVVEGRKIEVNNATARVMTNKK
`UUUAGCAAGCCCUGAGAUAUAGUAACUUCCUUGGUUAUGAGUCUUGUUGAAUGACUCCUUUUGGAAAGUUUAAACUCUGACAUGGCAUUGCCCUGGAAGUCUUGCCCCAU`: “RBNS enrichment (R)” 0.434.
For `UACCUCUCGGGACAACUUUUAAAAGCUAUUUUUACCAAGUAUUUUGUAAAUGCUAAUUUUUUAGGACUCUAUUAGUCAGCAUAAAAUCUAUAUGAAGAAGAUGGACAUUU`, “RBNS enrichment (R)” read 0.406.
`CCAUCCUCACACCCACUCAUCUCUGAGGAGCUAUGAACUGGUUUUGGUCCCUCUAAUGAUCCUCCAGCCUCAUCUAAUGCCCCCCAAAGACUGAUACAAGUAACCUCCCC`: “RBNS enrichment (R)” 0.425.
`UUUACACUUAUGCUCUAAGUGAUCCUUUUAAAAAUUUUCUGAACUAUUUGAGGAAAGUAUUAUUUGUCUUAAAGGGUAACAGCCUCAUGAAAUGACUUGAGGAUUCCAAU`: “RBNS enrichment (R)” 0.736.
Under “RBNS enrichment (R)”, `UCCCUCUGGACUCAGAGGGAACAAGGUGGGAGAGAGAGUUUGAGACAGCUCCGUGUGGAGAGCUUAGCCCCUGGAGGCAGCACAAGGAGGAUGUGAUAUGUGGGGGAGUG` is recorded as 2.05.
Under “RBNS enrichment (R)”, `UUAUGACCCCCUCAUCCUUCUCUUGAACUGGAGAGGGGAAGAAAUGAAAGGCAUGCCCACGUCCGUCACCUCCCCAUCCCCUAGUCCCCACCUUGAACAUCAUGAGCUGU` is recorded as 4.28.
For `UGGGUGGAUACUUGAACCCCAGACGCCCCUCUGUGCUGCUGUGUCCGGAGGCGGCCUUCCCAUCUGCCUGCCCACCCGGAGCUCUUUCCGCCGGCGCAGGGUCCCAAGCC`, “RBNS enrichment (R)” read 0.332.
For `CCUUCCCUGCCAGCAGUCUUCUCCAUACACGACAGGGCGUGUUCUCCACCAGGCCUGUAACAUCUUGUUGAGAUCAUUUCUAUGGCCCAAUACUUGUCGCUCUGGGGUUU`, “RBNS enrichment (R)” read 0.341.
Under “RBNS enrichment (R)”, `GCAGGGAGGAGUGGUACUUAAGCUCCCCUGCCUUAACCUGGGACCAACCUGACCUAACCUAGGAGGGCUCUGAGCCAACCUUGCUCUUGGGGAAGGGGACAGAUUAUGAA` is recorded as 0.35.
Under “RBNS enrichment (R)”, `UCUGGGCACAGAUUCUGGUGGCUCCCUGCUGGCCCUCUUGGGCCUCUGCUCACACCUGGGAAGGGGCUCUCUAAAUCCCGGCCAGAAACUCUGACUUGUGCCAACAAUAG` is recorded as 0.31.
`AGUUUUUAAAAUGCUUACUACAUACUUAUAUACACCCCUUGUGAAGAACACAUGACUUUUUAAAGAAAAUUACUAAGCAAACUGGAAAAGUGAAGUAUUUUCAUAGUGAU` — result for “RBNS enrichment (R)”: 0.472.
`UAGCAAGCAGAGUAUCAUUCAUGCUGGGGCCAGAAUGAUGGCCGGUUGCCAGAUAUAACUGCUUUGGAGCAAAUCUCUUCUGUUUAGAGAGAUAGAAGUUAUGACAUAUG`: “RBNS enrichment (R)” 0.324.

Series 4 — target: UBE2D1 UBC core domain (UniProt P51668); technique: yeast two-hybrid; sample: yeast; notes: mostly zero background; baseline: not given; reading: higher = stronger interaction
B1: MYCBP2 RING domain (UniProt O75592); chain TSLKQDADDMCMICFTEALSAAPAIQLDCSHIFHLQCCRRVLENRWLGPRITFGFISCPICKNKINHIVLKD
B2: DEF8 RING domain (UniProt Q6ZN54); chain AGRLGCSLTEIHTLFAKHIKLDCERCQAKGFVCELCREGDVLFPFDSHTSVCADCSAVFHRDCYYDNSTTCPKCARLSLRK
B3: RNF31 RING domain (UniProt Q96EP0); chain AFLRRLLAQECAVCGWALPHNRMQALTSCECTICPDCFRQHFTIALKEKHITDMVCPACGRPDLTDDTQLL
B4: RLIM RING domain (UniProt Q9NVW2); chain SFGENDALKTCSVCITEYTEGNKLRKLPCSHEYHVHCIDRWLSENSTCPICRRAVLASGNRE
B5: RNF183 RING domain (UniProt Q96D59); chain EQQGRELEAECPVCWNPFNNTFHTPKMLDCCHSFCVECLAHLSLVTPARRRLLCPLCRQPTVLASGQP
B6: TRIM22 RING domain (UniProt Q8IYM9); chain VKVDIEKEVTCPICLELLTEPLSLDCGHSFCQACITAKIKESVIISRGESSCPVCQTRFQPGNLRP
B7: MEX3B RING domain (UniProt Q6ZN04); chain SGLRRKGSRDCSVCFESEVIAALVPCGHNLFCMECANRICEKSEPECPVCHTAVTQAIRIF
B8: TRIM60 RING domain (UniProt Q495X7); chain ALVNLQEESSCPICLEYLKDPVTINCGHNFCRSCLSVSWKDLDDTFPCPVCRFCFPYKSFRR
B9: ANAPC11 RING domain (UniProt Q9NYG5); chain GICRMAFNGCCPDCKVPGDDCPLVWGQCSHCFHMHCILKWLHAQQVQQHCPMCRQEWKFKE
Construct (chain): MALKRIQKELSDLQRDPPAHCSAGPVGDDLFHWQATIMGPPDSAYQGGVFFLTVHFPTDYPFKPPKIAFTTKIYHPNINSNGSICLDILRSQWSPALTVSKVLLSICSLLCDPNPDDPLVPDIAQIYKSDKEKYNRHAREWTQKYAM
For `MNDVLENELQCIICSEYFIEAVTLNCAHSFCSYCINEWMKRKIECPICRKDIKSKTYSL (RNF8 RING domain (UniProt O76064))`, “lacZ reporter activity” read 0.
`B1 (MYCBP2 RING domain)` — result for “lacZ reporter activity”: 0.
Under “lacZ reporter activity”, `B2 (DEF8 RING domain)` is recorded as 0.
Under “lacZ reporter activity”, `FVKTVEDKYKCEKCHLVLCSPKQTECGHRFCESCMAALLSSSSPKCTACQESIVKDKVF (TRAF3 RING domain (UniProt Q13114))` is recorded as 0.
`B3 (RNF31 RING domain)` — result for “lacZ reporter activity”: 0.
For `B4 (RLIM RING domain)`, “lacZ reporter activity” read 0.
`B5 (RNF183 RING domain)` — result for “lacZ reporter activity”: 0.
`LGTKLEAKYLCSACRNVLRRPFQAQCGHRYCSFCLASILSSGPQNCAACVHEGIYEEGIS (TRAF2 RING domain (UniProt Q12933))` — result for “lacZ reporter activity”: 0.
Under “lacZ reporter activity”, `B6 (TRIM22 RING domain)` is recorded as 0.
For `B7 (MEX3B RING domain)`, “lacZ reporter activity” read 0.
Under “lacZ reporter activity”, `LDAASGHPLVCPLCHGQYERPCLLDCFHDFCTGCLRGRATDGRLSCPLCQHQTLVKGPSG (Rnf207 RING domain (UniProt Q3V3A7))` is recorded as 0.
For `B8 (TRIM60 RING domain)`, “lacZ reporter activity” read 0.
Under “lacZ reporter activity”, `B9 (ANAPC11 RING domain)` is recorded as 0.

Series 5 — technique: DHFR PCA, deep sequencing; sample: yeast; together with: (+)-ABA 17 µM; baseline: wild-type fitted maximum; reading: higher = stronger binding
Target: ABI1, truncated, D143A, DHFR fusion (Arabidopsis thaliana)
Notes: methotrexate growth selection, single substitutions
Parent: PYL1, truncated, DHFR fusion (Arabidopsis thaliana); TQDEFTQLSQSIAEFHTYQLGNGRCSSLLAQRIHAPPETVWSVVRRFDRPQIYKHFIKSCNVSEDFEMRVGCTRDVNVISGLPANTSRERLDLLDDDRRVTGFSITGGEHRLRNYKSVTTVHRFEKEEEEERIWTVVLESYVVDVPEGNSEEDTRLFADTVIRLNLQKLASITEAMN; partner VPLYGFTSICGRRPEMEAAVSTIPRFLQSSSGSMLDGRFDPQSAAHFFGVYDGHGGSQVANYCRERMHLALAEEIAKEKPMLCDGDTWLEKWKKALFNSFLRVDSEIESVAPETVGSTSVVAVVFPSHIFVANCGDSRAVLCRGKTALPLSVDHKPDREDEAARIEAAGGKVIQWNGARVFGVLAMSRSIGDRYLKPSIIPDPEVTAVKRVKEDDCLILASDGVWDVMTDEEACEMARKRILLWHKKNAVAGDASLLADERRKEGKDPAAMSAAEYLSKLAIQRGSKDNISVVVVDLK
`D48T` — result for “relative binding score”: 3.12%.
`N77F` — result for “relative binding score”: 87.2%.
Under “relative binding score”, `T154H` is recorded as -18.1%.
`R163N` — result for “relative binding score”: 58.6%.
Under “relative binding score”, `T6A` is recorded as 87.8%.
`G81Q`: “relative binding score” -0.0148%.
`K126W` — result for “relative binding score”: 74.3%.
Under “relative binding score”, `L94W` is recorded as 71.3%.
Under “relative binding score”, `M176Y` is recorded as 82.3%.
Under “relative binding score”, `R24W` is recorded as 25.9%.
`I52T`: “relative binding score” 87.4%.
`L94A`: “relative binding score” 2.35%.
Under “relative binding score”, `D48I` is recorded as 8.75%.
Under “relative binding score”, `D96R` is recorded as -2.83%.
`K116T` — result for “relative binding score”: 77.1%.
`E127S`: “relative binding score” 84.2%.
`L166A`: “relative binding score” 6.24%.
